Published values from different studies.
Every numbered part comes from another study and shows a few of its results, in no order. Positions count from the first letter of the parent shown.

Block 1
Target: Ras GTPase-activating protein-binding protein 1, full length (G3BP1, Homo sapiens, UniProt Q13283)
Sequence of UniProt Q13283 (whole entry, looked up): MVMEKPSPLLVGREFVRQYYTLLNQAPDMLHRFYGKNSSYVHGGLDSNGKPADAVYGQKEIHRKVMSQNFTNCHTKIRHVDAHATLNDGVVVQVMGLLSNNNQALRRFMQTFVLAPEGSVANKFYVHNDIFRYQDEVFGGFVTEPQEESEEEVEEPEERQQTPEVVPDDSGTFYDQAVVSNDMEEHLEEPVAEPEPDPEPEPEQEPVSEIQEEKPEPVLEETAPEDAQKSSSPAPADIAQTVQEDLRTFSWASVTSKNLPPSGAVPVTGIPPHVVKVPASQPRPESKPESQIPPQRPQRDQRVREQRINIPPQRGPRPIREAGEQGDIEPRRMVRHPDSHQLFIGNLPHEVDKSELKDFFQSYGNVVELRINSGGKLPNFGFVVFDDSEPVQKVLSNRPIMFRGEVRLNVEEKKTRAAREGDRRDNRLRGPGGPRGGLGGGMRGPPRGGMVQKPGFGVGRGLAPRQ
Technique: RNA Bind-n-Seq
Molecule type: RNA
Sample: in vitro
Tested at: 200 nM
Notes: whole 134-nt RNA, ends assumed
Together with: 150 mM LiCl
Reference: input library
Reading: higher = stronger binding
Library: 7-deaza-guanosine replaces G
With `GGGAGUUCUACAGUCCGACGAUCCCUGUGCUACACAUCGUAUGUACCGAAUCGGGGUUUUUUUGGGGAGGGGUUUUUUUGGGGAAAGUAUUAUGUUACGCCGUUCGGAUCUGCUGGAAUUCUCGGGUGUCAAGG` the log2 enrichment was 1.04.
The log2 enrichment of `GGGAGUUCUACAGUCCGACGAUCAGUCCUGUGCUACACAUCGUAUGUACCGAAUCGGGGCCCGGGGCCCGGGGCCCGGGGAAAGUAUUAUGUUACGCCGUUCGGAUCUGCACUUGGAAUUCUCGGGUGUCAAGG` is reported as -1.
The log2 enrichment of `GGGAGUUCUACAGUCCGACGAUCAGUCCUGUGCUACACAUCGUAUGUACCGAAUCGGGGUUUUGGUUUUGGGGUUUUGGGAAAGUAUUAUGUUACGCCGUUCGGAUCUGCACUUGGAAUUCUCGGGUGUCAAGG` is reported as -0.359.
For `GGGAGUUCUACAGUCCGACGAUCAGUCCUGUGCUACACAUCGUAUGUACCGAAUCGGGUUUUUUUGGGUUUUUGGGAGGGAAAGUAUUAUGUUACGCCGUUCGGAUCUGCACUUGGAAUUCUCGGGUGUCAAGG`, the log2 enrichment was -0.203.
`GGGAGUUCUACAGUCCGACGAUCCACAGACAACACGCACCCACACAGACACAGAGGGAAGGGGUUGGGAUGGGGACAGGGUGCACAGCAGGCCGGGGUAGGACCCCAGCCCCUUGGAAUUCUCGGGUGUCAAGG` gave a log2 enrichment of -0.158.
`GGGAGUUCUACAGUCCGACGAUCUCAAGUCCUGUGCUACACAUCGUAUGUACCGAAUCGGCCCGGCCCGGCCCGGGGAAAGUAUUAUGUUACGCCGUUCGGAUCUGCACUUCCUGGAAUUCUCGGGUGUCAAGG` gave a log2 enrichment of 0.0207.
For `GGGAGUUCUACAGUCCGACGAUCUGGGAGGUGGAUUUUGUUUAUUUUUUUAGCUCAUUUCCAGGGGUGGGAAUUUUUUUUUAAAAUGUGUCAUGAAUAAAGUUGUUUUUGAAAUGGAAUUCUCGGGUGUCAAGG`, the log2 enrichment was -0.273.
For `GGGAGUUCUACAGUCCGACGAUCCAAGUCCUGUGCUACACAUCGUAUGUACCGAAUCGGAGGAAAAAGGAAAAAAAGGAAAGUAUUAUGUUACGCCGUUCGGAUCUGCACUUCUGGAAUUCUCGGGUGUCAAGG`, the log2 enrichment was -0.114.

Block 2
Target: Sal-like protein 4, full length isoform A (SALL4, Homo sapiens, UniProt Q9UJQ4, residues 1-1053)
Sequence of UniProt Q9UJQ4 (whole entry, looked up): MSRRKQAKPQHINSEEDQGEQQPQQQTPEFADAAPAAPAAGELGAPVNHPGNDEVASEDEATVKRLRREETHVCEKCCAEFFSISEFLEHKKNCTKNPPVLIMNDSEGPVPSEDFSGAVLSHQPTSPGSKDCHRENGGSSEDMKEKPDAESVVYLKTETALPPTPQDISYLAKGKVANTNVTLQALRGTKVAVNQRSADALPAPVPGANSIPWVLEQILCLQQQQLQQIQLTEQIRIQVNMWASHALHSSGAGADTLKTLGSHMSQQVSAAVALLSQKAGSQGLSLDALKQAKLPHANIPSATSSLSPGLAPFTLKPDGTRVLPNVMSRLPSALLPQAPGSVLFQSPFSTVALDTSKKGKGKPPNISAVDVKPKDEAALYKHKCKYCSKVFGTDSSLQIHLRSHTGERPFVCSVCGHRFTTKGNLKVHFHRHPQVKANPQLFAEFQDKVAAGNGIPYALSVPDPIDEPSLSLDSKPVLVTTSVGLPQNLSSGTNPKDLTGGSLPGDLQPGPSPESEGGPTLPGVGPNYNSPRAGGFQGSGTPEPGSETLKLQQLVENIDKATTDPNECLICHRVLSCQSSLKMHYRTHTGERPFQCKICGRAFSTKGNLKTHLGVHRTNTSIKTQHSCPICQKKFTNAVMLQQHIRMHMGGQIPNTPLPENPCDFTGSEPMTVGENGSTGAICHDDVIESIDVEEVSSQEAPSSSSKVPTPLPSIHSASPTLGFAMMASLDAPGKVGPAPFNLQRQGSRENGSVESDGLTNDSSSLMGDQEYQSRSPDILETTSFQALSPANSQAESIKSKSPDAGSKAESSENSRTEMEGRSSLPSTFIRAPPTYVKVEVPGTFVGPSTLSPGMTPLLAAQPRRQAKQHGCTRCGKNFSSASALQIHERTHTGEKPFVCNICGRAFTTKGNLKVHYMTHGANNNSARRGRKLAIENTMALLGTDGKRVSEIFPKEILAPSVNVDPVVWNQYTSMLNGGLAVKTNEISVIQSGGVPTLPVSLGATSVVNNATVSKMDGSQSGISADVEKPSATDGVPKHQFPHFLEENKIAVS
Technique: universal PBM
Molecule type: double-stranded DNA, one strand shown
Sample: in vitro
Tested at: 600 nM
Notes: 8-mer, flanks averaged, mean of replicates
Reading: higher = stronger binding
`GCTCAAAA` gave an E-score of 0.0664.
With `GAATACCC` the E-score was -0.153.
For `GCCCACAA`, the E-score was -0.153.
`ACTTCTAC` gave an E-score of 0.0724.
With `CTTAACGA` the E-score was 0.05.
`AGACTAGA` gave an E-score of -0.0258.
The E-score of `AATGGTAT` is reported as 0.249.
For `AGTCCACC`, the E-score was -0.24.
`CGACCCTA` gave an E-score of -0.287.
The E-score of `ACGCGTAG` is reported as -0.182.
With `TCTGAAAA` the E-score was 0.136.
The E-score of `ACCGCTTA` is reported as -0.154.
For `TCCATCCA`, the E-score was 0.0308.
For `ACCAGTCG`, the E-score was -0.127.
`ACGATGCC` gave an E-score of -0.32.
The E-score of `AGAGACCT` is reported as -0.114.
`ACCAGAAG` has an E-score of 0.0414.
The E-score of `ATAGCCAC` is reported as -0.0188.

Block 3
Target: Transcription factor Sp1 (SP1, Homo sapiens, UniProt P08047, residues 1-785, full length assumed)
Sequence of UniProt P08047 (whole entry, looked up): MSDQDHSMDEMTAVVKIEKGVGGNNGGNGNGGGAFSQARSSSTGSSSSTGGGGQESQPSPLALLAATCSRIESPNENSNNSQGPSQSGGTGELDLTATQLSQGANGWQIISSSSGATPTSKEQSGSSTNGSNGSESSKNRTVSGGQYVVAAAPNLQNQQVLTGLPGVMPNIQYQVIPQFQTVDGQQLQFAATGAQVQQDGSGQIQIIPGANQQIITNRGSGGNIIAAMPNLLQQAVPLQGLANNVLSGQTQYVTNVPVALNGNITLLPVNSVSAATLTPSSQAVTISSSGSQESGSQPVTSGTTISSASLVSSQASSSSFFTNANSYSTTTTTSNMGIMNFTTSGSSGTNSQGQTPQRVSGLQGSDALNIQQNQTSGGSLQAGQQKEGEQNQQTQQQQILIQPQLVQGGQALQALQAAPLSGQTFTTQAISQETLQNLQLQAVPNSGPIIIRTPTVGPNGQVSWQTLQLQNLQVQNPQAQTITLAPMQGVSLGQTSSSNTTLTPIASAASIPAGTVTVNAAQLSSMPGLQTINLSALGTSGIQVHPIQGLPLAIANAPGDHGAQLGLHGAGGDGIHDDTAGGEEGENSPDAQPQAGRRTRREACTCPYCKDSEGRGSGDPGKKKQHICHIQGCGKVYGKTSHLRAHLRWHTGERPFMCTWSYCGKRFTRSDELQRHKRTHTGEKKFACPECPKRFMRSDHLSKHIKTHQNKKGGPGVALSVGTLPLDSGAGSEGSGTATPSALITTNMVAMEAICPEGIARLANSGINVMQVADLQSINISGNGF
Technique: protein-binding microarray
Molecule type: double-stranded DNA, one strand shown
Sample: in vitro
Tested at: not given
Notes: k-mer, scored over probes, only values ≥0.25
Reading: higher = stronger binding
`AACGTAGA` gave an E-score of 0.258.
For `AAGTGGGG`, the E-score was 0.31.
The E-score of `ATCCCCAT` is reported as 0.264.
With `ATGAATGG` the E-score was 0.278.
The E-score of `CCTCATTA` is reported as 0.266.
For `GTAAGGTA`, the E-score was 0.264.
`ACGCCCAT` gave an E-score of 0.416.
For `TGTACACA`, the E-score was 0.279.
`AGGGGCTG` has an E-score of 0.302.
For `AACGCCCC`, the E-score was 0.457.
`ACCCTCCC` gave an E-score of 0.467.
With `CGAGGGGC` the E-score was 0.257.
For `AACCGCCC`, the E-score was 0.322.
`ATTATATA` gave an E-score of 0.282.

Block 4
Target: Histone acetyltransferase KAT6A, winged helix 1, GST fusion (KAT6A, Homo sapiens, UniProt Q92794, residues 1-85)
Technique: protein binding microarray
Molecule type: double-stranded DNA, one strand shown
Sample: in vitro
Tested at: not given
Notes: 8-mer, flanks averaged, mean of 2 arrays, mostly near background
Reference: not given
Reading: higher = stronger binding
Construct (chain): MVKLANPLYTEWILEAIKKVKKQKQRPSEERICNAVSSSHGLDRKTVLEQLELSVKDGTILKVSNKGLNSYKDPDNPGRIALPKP
With `GTGCAGAA` the E-score was -0.118.
For `GCCACCAC`, the E-score was -0.0175.
`CAGATCGG` has an E-score of 0.0436.
With `ACCACGAG` the E-score was -0.0896.
`GCAGCACA` gave an E-score of -0.117.
With `CTTACGTC` the E-score was -0.095.
`ACCCGGGA` has an E-score of 0.181.
The E-score of `ACAGGTTG` is reported as -0.274.
`GACCAAGC` gave an E-score of -0.0434.
The E-score of `GGTAAGAC` is reported as -0.12.
The E-score of `AGCACCGA` is reported as -0.107.
`AGCGGCTA` gave an E-score of 0.337.
`GCGCCAAC` has an E-score of 0.217.
For `CATAGGAC`, the E-score was -0.0653.
The E-score of `ATTCGACA` is reported as -0.169.
The E-score of `CAATAATA` is reported as -0.245.
For `GCACTCAA`, the E-score was -0.035.
`CTCGTAAG` gave an E-score of 0.00991.
`CTGAAGGA` gave an E-score of -0.123.
The E-score of `ATTCGAAT` is reported as -0.0816.
`CGAATCGA` has an E-score of -0.0743.
With `ACAGGTTA` the E-score was -0.129.
The E-score of `GACGTAAC` is reported as -0.0952.
For `CCACCTAG`, the E-score was -0.0986.
`AGACTGCC` gave an E-score of 0.0456.

Block 5
Target: RING finger protein unkempt homolog, zinc fingers 1-6, GST-SBP tag (UNK, Homo sapiens, UniProt Q9C0B0, residues 30-357)
Sequence of UniProt Q9C0B0 (30-357, looked up): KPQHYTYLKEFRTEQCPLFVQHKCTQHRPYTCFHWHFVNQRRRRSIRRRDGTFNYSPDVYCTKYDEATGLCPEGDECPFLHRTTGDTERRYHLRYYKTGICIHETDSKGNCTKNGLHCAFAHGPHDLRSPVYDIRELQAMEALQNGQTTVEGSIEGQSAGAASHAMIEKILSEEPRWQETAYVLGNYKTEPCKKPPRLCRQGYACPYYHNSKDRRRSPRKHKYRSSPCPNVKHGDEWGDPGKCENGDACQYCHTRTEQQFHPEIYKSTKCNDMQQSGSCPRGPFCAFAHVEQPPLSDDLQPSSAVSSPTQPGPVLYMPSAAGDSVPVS
Technique: RNA Bind-n-Seq
Molecule type: RNA
Sample: in vitro
Tested at: not given
Notes: RNA with constant flanks, human-mouse chimeric sites, ends assumed
Reference: input RNA pool
Reading: higher = stronger binding
With `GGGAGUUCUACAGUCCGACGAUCGCUGGAUCUUCUAAGUACCAGUGGGACAUUAUGAAAUCCCUUGGGCUCUCUGAUGACGACAUAGUGAAGUUUUCUGAAGCAGAGCACUGGCUUGAUUAUUUCCCACCACUGGCCGUUCAGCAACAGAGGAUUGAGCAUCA` the bound/input enrichment was 0.135 ratio.
The bound/input enrichment of `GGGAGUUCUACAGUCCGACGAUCUUGUGCAAUGAUGCUUGAGAUGGUUUUUGCAGAUGCAGAAAUCGCUGCAAGGUAAUCACAAUAGAUAAAAGUGGUAUUUUAAACCUUUGAAAUAAAUGGAUGUAACUGUACCUUGGUACACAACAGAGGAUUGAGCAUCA` is reported as 0.722 ratio.
With `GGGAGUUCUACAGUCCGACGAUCAGAUUCCCCCUCCUGAGACCUCCUCCGAAGUUGGAGUCUCUUACAGAUGCCUCAUCCCCUGUUAGUAUUUUAGUUUGGACCACCCAGCCUUGGACAAUUCCAGCCAACCAGGCAAUUUGCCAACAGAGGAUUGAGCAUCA` the bound/input enrichment was 3.86 ratio.
For `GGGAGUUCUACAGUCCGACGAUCAAACAUCUGUCUUUAAGCAUUCCAAGCGAGAAUGCUGGGGUGAUCAUUGUUGCCCAUAUAUAGUAAUACUGAGCUUUAAUGCUGUUCCAUGUUACAUCUUUCCUUCACUCCAGAAUUGUUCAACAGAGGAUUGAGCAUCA`, the bound/input enrichment was 0.409 ratio.
`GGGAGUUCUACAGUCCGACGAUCCCAAUUGUGGAGCAGUACUUGAAGACAAAGAAAAAUUCUAAUAAUUUAAUCAUCAAGUACAUUAGCUGCCGGCUGGUGACACUCAUCAUUAUACUGUUGGCAUGUAUCUACCUGGGCUAUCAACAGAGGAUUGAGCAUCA` has a bound/input enrichment of 0.32 ratio.
`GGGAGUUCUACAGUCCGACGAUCUGUGCAUUAUGAUGCUUAGAUGGUUUUUGCAAAAGCAGACAUCGCUGCAAGGUAAUCACAAUAGAUAAAAGUGGUAUUUUAAACCUUUGAAAUAAAUGGAUGUAACUGUACCUUGGUACACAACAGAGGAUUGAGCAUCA` has a bound/input enrichment of 0.676 ratio.
`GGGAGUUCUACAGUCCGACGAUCGUAAUGUUUAUUCAUUUCUUAUUUUUAUAUAGCUAGAUAAAUAUUGUUAGUCUUAGACAAUAGCUCACAUUUUUUGAGAAGCAUGCCCUCCCUGUCCAUUUGUCUUAUAACAUGACCCAGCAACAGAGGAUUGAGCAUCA` has a bound/input enrichment of 13.9 ratio.
With `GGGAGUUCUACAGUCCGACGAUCGGAUCUUUGGGACUGUUUUACUUAAUUGGUCAUUGAUAGCUUAACAAACAUGGAGAUGAGAUUAGAAAUCUUGACAUCAACAGGUAUUAAGCAGAAAAAACCAUGGCCACGUGUCUCCUGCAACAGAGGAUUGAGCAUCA` the bound/input enrichment was 0.204 ratio.

Block 6
Target: CCNB1, cyclin fold, Cln2 fusion (human)
Technique: yeast growth competition, sequencing
Sample: yeast
Notes: weak parent motif
Reference: not given
Reading: higher = stronger binding
Parent: GMNC docking peptide (human); KNAKRNLSSEFAN
`F11D`: “normalised enrichment score” 0.783.
For `F11N`, “normalised enrichment score” read -0.435.
`N2W`: “normalised enrichment score” 0.173.
`L7G`: “normalised enrichment score” 0.126.
`N6H`: “normalised enrichment score” -0.0413.
`E10Y` — result for “normalised enrichment score”: -0.463.
Under “normalised enrichment score”, `A3H` is recorded as 0.7.
For `N2R`, “normalised enrichment score” read 0.633.
`E10S` — result for “normalised enrichment score”: 0.244.
Under “normalised enrichment score”, `A3E` is recorded as -0.0751.
For `R5D`, “normalised enrichment score” read 0.0718.
Under “normalised enrichment score”, `N2M` is recorded as 0.0688.
`F11A` — result for “normalised enrichment score”: 0.313.
`L7E`: “normalised enrichment score” 0.0445.
`A3F` — result for “normalised enrichment score”: 0.397.
`S8K`: “normalised enrichment score” 0.443.
For `K4M`, “normalised enrichment score” read -0.0251.
`A3L`: “normalised enrichment score” -0.117.
Under “normalised enrichment score”, `F11M` is recorded as 0.274.
`A3V` — result for “normalised enrichment score”: 0.614.
`N2K`: “normalised enrichment score” 0.467.
For `E10G`, “normalised enrichment score” read 0.236.

Repeated from above (block 3):
`ACCCTCCC` gave an E-score of 0.467.
The E-score of `ATCCCCAT` is reported as 0.264.
The E-score of `CCTCATTA` is reported as 0.266.
`ACGCCCAT` gave an E-score of 0.416.
For `GTAAGGTA`, the E-score was 0.264.
With `CGAGGGGC` the E-score was 0.257.
For `AACCGCCC`, the E-score was 0.322.
For `AACGCCCC`, the E-score was 0.457.
